Published values of several laboratories.
Numbered parts are unrelated; each lists some results of a single study. Substitutions count along the parent as printed.
Sequence of UniProt Q9H832 (whole entry, looked up): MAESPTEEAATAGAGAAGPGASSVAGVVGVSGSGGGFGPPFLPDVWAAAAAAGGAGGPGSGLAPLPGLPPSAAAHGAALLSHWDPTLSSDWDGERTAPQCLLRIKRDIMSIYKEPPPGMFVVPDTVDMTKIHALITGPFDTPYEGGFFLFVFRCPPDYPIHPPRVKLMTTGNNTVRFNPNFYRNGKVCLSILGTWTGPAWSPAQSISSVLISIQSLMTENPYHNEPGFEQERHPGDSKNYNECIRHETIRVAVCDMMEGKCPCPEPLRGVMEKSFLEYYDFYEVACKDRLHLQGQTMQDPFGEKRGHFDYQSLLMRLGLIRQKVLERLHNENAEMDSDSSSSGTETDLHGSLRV
Sequence of UniProt Q712K3 (whole entry, looked up): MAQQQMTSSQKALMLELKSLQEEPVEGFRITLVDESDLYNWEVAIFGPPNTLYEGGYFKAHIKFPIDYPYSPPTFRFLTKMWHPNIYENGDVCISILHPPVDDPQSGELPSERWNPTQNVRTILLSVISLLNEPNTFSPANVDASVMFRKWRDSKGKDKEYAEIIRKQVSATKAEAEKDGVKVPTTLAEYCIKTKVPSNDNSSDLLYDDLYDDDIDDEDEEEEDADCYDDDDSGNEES
Sequence of UniProt Q9NPD8 (whole entry, looked up): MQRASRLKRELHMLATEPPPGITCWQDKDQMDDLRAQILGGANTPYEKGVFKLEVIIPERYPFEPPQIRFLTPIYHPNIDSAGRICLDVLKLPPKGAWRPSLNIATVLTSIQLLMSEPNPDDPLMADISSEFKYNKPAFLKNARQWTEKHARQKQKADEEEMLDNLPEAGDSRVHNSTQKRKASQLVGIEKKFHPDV
Sequence of UniProt Q7Z7E8 (whole entry, looked up): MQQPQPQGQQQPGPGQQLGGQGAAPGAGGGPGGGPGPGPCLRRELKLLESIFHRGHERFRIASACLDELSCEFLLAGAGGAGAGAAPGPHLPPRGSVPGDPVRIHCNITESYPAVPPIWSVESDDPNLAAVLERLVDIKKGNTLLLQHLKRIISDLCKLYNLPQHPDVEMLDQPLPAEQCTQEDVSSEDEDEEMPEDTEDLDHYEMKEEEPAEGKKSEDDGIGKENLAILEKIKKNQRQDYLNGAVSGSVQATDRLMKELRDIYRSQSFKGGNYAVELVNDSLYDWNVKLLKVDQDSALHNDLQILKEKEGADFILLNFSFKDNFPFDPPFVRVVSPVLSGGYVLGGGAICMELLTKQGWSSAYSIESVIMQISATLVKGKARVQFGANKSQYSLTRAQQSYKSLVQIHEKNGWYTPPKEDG
Sequence of UniProt Q969T4 (whole entry, looked up): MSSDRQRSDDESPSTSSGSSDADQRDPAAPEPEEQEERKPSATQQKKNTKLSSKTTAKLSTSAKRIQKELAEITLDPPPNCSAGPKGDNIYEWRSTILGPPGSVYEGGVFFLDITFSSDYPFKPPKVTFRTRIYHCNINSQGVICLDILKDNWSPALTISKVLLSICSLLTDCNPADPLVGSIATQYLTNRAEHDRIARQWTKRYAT
Sequence of UniProt O00762 (whole entry, looked up): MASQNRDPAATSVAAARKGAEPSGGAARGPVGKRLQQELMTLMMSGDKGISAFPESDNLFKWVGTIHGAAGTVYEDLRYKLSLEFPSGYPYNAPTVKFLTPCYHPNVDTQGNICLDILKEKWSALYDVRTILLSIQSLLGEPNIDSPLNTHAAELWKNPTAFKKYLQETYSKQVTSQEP
Sequence of UniProt P51668 (whole entry, looked up): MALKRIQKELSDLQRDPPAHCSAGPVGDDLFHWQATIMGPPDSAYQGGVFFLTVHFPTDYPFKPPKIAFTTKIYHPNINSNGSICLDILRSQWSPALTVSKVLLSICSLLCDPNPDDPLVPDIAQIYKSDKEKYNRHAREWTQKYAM
Sequence of UniProt Q9C0C9 (whole entry, looked up): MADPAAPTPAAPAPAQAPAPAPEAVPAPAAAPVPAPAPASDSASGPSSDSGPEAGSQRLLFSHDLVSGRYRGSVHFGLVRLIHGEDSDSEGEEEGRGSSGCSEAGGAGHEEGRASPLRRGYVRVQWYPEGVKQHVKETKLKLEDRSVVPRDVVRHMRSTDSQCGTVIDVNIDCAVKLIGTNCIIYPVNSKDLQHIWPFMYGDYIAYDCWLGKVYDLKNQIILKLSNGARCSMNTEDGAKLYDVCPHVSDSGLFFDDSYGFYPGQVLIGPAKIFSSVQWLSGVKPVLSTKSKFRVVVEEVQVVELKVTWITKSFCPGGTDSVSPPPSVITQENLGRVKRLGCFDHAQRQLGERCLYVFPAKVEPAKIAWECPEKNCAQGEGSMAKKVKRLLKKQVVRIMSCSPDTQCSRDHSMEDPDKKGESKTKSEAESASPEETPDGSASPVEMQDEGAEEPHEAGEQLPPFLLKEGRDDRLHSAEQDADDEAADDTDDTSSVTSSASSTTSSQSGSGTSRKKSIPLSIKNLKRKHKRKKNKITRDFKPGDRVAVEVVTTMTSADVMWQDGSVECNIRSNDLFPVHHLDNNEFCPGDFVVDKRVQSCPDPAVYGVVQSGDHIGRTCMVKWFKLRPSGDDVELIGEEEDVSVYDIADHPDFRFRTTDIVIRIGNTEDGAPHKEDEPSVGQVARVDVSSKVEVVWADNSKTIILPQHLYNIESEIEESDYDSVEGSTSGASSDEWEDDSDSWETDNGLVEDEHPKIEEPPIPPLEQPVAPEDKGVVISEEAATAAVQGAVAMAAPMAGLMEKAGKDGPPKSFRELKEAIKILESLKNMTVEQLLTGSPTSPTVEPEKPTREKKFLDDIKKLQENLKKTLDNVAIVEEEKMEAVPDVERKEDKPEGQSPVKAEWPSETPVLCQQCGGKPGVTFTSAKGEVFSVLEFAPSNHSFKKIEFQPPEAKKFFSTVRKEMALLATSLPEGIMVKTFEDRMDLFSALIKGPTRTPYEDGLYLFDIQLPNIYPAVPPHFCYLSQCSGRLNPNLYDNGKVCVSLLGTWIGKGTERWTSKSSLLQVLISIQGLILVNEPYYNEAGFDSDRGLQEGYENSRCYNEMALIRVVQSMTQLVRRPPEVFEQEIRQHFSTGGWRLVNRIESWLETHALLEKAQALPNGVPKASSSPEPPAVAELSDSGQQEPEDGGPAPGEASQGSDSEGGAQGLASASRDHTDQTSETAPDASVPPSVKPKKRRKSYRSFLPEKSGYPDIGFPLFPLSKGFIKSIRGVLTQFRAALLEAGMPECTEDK
Sequence of UniProt P63146 (whole entry, looked up): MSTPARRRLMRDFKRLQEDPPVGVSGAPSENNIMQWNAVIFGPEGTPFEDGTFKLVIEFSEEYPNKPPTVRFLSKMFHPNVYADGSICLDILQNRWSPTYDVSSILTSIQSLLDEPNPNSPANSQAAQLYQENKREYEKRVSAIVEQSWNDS
Sequence of UniProt P61081 (whole entry, looked up): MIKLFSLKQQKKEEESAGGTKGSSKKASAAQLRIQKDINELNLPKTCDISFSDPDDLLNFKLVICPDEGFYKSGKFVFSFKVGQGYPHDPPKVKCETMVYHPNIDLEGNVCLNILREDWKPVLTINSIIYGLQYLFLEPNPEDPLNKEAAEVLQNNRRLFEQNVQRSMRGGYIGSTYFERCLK

Study 1 — method: protein-binding microarray; molecule type: double-stranded DNA, one strand shown; medium: in vitro; tested at: 940 nM top; notes: 60-bp whole probe; together with: salmon DNA 0.4 mg/ml; relative to: random background probes; reading: higher = stronger binding; all sequences stand within: GCCTAGCAC … GTCTTGATTCGCTTGACGCTGCTG
Target: Interferon regulatory factor 5, full length, phosphomimetic (IRF5, Homo sapiens, UniProt Q13568-2, residues 1-514, S451D/S453D/S456D/S462D)
Oligonucleotide | fitted relative affinity
TTAGATTTCGGGAATGGATTAGTGCTA | 0.725 z-score
TACGGTATCGACACTGGGGACGTGCTA | 3.92 z-score
ATCATTCTCACTGCAGCCTTGTGCTAG | 2.4 z-score
TGTTTTTCATTGTTTTTCATCGTGCTA | 2.01 z-score
TCATTTTTTTCTTTTATACTGTGCTAG | 2.25 z-score
TTAGGTTTCCTTATCCTTTGGTGCTAG | 1.66 z-score
TCAAGTTTTCCTCTGTCACTGTGCTAG | 1.14 z-score
GACGGTATGCTTCTCCTGACGTGCTAG | 0.098 z-score
GACGCTATCGACTTTCGGGACGTGCTA | 0.926 z-score
GAAGGTATCGGTTTCGGGACGTGCTAG | 8.52 z-score
TTAGGTACCGGGTTTCGGTTAGTGCTA | 5.64 z-score
TCATTTCTGAATGTCCTACTGTGCTAG | 0.476 z-score
TTAGATTTCGCGTATCGATTAGTGCTA | 1.44 z-score
TCATCTTTCACTGCTCCAACTGTGCTA | 1.69 z-score
TCATGTTTACATATGTTACTGTGCTAG | -0.0784 z-score
TACGGTTTCCTTTTCCTGACGTGCTAG | 1.84 z-score
TTAGGTACCCTTATCCTTTAGTGCTAG | -0.126 z-score

Study 2 — method: RNA Bind-n-Seq; molecule type: RNA; medium: in vitro; tested at: 200 nM; notes: whole 134-nt RNA, ends assumed; together with: 150 mM LiCl; relative to: input library; reading: higher = stronger binding; all molecules: 7-deaza-guanosine replaces G
Target: Ras GTPase-activating protein-binding protein 1, full length (G3BP1, Homo sapiens, UniProt Q13283)
Sequence of UniProt Q13283 (whole entry, looked up): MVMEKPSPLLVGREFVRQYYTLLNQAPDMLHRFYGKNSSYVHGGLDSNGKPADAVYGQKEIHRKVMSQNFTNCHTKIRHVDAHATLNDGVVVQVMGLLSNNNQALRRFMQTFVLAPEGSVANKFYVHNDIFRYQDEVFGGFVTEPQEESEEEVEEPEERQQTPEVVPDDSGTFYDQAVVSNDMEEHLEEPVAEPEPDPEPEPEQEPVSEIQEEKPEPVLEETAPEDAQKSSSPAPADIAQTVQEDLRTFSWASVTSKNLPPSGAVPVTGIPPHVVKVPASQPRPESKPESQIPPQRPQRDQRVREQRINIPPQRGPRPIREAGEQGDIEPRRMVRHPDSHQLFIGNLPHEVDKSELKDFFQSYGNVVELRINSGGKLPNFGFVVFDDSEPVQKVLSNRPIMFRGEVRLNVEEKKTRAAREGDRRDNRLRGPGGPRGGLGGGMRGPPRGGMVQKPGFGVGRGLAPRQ
All sequences stand within: GGGAGUUCUACAGUCCGACGAUC … UGGAAUUCUCGGGUGUCAAGG
Oligonucleotide | log2 enrichment
GUCCUGUGCUACACAUCGUAUGUACCGAAUCGGGUUUUUGGGGUUUUUGGUUUUUGGGAAAGUAUUAUGUUACGCCGUUCGGAUCUGCAC | -0.747
UGUGCUACACAUCGUAUGUACCGAAUCGGGGAAAAAGGGGAAAAAAAGGGGUUUUUUUGGGGAAAGUAUUAUGUUACGCCGUUCGGAUCU | 0.355
UCAAGUCCUGUGCUACACAUCGUAUGUACCGAAUCGGGUGGGUUUGGGUUUGGGAAAGUAUUAUGUUACGCCGUUCGGAUCUGCACUUCC | -1.05
CUGUGCUACACAUCGUAUGUACCGAAUCGGGGAAAGGGGAAAAAAAGGGGAAAAAAAGGGGAAAGUAUUAUGUUACGCCGUUCGGAUCUG | 0.758
UCAAGUCCUGUGCUACACAUCGUAUGUACCGAAUCGGGUUUGGGAGGGUUUGGGAAAGUAUUAUGUUACGCCGUUCGGAUCUGCACUUCC | -0.251
GUCCUGUGCUACACAUCGUAUGUACCGAAUCAAACCCCCAAAUUUUUUUAAACCCAAAAAAGUAUUAUGUUACGCCGUUCGGAUCUGCAC | 1.54
ACUGAGGUACUGCCCUCCCCUGCCCCCUACCCUCUCCCUUGUCCCUCUACCCCGUUCCUCCCCUUCCCUCCAUUCCCUUUCCCCAACCUG | -0.615
CCUCAAGUCCUGUGCUACACAUCGUAUGUACCGAAUCGGCCGGCCGGCCGGGGAAAGUAUUAUGUUACGCCGUUCGGAUCUGCACUUCCA | 0.288
UGGGAGGUGGAUUUUGUUUAUUUUUUUAGCGCAUUUCCAGGGGUGGGAAUUUUUUUUUAAUAUGUGUCAUGAAUAAAGUUGUUUUUGAAA | 0.186
GUCCUGUGCUACACAUCGUAUGUACCGAAUCGGGUUUUUGGGUUUUUGGUUUUUGGGGAAAGUAUUAUGUUACGCCGUUCGGAUCUGCAC | -0.83
AGUCCUGUGCUACACAUCGUAUGUACCGAAUCAAAUUUAAAUUUUUUUAAACCCAAAAAAGUAUUAUGUUACGCCGUUCGGAUCUGCACU | -0.916

Study 3 — target: CEBPE, bZIP domain (human); method: DHFR protein complementation; medium: yeast; relative to: wild-type JUN-FOS pair; reading: higher = stronger binding
Notes: single substitutions, most at no-binding floor
Parent: JUN, bZIP domain (human); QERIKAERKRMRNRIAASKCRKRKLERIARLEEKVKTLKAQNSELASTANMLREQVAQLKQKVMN; partner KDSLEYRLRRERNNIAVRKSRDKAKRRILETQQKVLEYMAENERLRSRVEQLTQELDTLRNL
Variant | binding fitness
E33Q | -1.29 natural log
E32L | -1.36 natural log
V35R | -1.42 natural log
V56G | -1.47 natural log
S47G | -1.19 natural log
V35M | -0.985 natural log
K39D | -1.33 natural log
K34F | -1.19 natural log
A49H | -1.37 natural log
Q55K | -1.1 natural log
L31S | -1.35 natural log
S43F | -1.17 natural log
E54M | -1.26 natural log
A29E | -1.14 natural log
L45C | -1.47 natural log
K39A | -1.11 natural log
S43Y | -1.26 natural log
I28F | -1.27 natural log
V35L | -0.778 natural log
K39L | -1.26 natural log
E33A | -1.15 natural log
L45S | -1.55 natural log
R53V | -1.09 natural log
K34W | -1.11 natural log
L38H | -1.45 natural log

Study 4 — target: CCNE1, cyclin fold, Cln2 fusion (human); method: yeast growth competition, sequencing; medium: yeast; notes: weak parent motif; relative to: not given; reading: higher = stronger binding
Parent: PKN2 docking peptide (human); VSAVQKLDFSDTM
Variant | normalised enrichment score
VSAVQKLNFSDTM [D8N] | 0.395
VPAVQKLDFSDTM [S2P] | 0.77
VSAVQKLDFSFTM [D11F] | 0.672
VSCVQKLDFSDTM [A3C] | 0.825
VMAVQKLDFSDTM [S2M] | 0.923
VSAVQMLDFSDTM [K6M] | 0.784
VYAVQKLDFSDTM [S2Y] | 1.13
VSAVQVLDFSDTM [K6V] | 0.846
VVAVQKLDFSDTM [S2V] | 0.736
VSTVQKLDFSDTM [A3T] | 0.0301
VSAVQYLDFSDTM [K6Y] | 0.0803
VSAVQKLDFWDTM [S10W] | 0.531
VSANQKLDFSDTM [V4N] | -0.3
VSAVQILDFSDTM [K6I] | 0.466
VTAVQKLDFSDTM [S2T] | 0.807
VSAVQKPDFSDTM [L7P] | -0.314
VSAVQKLDFQDTM [S10Q] | -0.289

Study 5 — method: yeast two-hybrid; medium: yeast; notes: mostly zero background; relative to: not given; reading: higher = stronger interaction
Sequence: KITELNPHLMCVLCGGYFIDATTIIECLHSFCKTCIVRYLETSKYCPICDVQVHKTRPLL (BMI1 RING domain (UniProt P35226))
target | lacZ reporter activity
UBE2D1 UBC core domain (UniProt P51668) | 0
UBE2C UBC core domain (UniProt O00762) | 0
UBE2E3 UBC core domain (UniProt Q969T4) | 0
UBE2B UBC core domain (UniProt P63146) | 0
UBE2O UBC core domain (UniProt Q9C0C9) | 0
UBE2R2 UBC core domain (UniProt Q712K3) | 0
UBE2T UBC core domain (UniProt Q9NPD8) | 7060
UBE2M UBC core domain (UniProt P61081) | 0
BIRC6 UBC core domain (UniProt Q9NR09) | 0
UBE2I UBC core domain (UniProt P63279) | 0
UBE2Q1 UBC core domain (UniProt Q7Z7E8) | 0
UBE2Z UBC core domain (UniProt Q9H832) | 0
UBE2J1 UBC core domain (UniProt Q9Y385) | 0

Study 6 — method: universal PBM; molecule type: double-stranded DNA, one strand shown; medium: in vitro; tested at: 600 nM; reading: higher = stronger binding
Target: Sal-like protein 4, full length isoform A (SALL4, Homo sapiens, UniProt Q9UJQ4, residues 1-1053)
Sequence of UniProt Q9UJQ4 (whole entry, looked up): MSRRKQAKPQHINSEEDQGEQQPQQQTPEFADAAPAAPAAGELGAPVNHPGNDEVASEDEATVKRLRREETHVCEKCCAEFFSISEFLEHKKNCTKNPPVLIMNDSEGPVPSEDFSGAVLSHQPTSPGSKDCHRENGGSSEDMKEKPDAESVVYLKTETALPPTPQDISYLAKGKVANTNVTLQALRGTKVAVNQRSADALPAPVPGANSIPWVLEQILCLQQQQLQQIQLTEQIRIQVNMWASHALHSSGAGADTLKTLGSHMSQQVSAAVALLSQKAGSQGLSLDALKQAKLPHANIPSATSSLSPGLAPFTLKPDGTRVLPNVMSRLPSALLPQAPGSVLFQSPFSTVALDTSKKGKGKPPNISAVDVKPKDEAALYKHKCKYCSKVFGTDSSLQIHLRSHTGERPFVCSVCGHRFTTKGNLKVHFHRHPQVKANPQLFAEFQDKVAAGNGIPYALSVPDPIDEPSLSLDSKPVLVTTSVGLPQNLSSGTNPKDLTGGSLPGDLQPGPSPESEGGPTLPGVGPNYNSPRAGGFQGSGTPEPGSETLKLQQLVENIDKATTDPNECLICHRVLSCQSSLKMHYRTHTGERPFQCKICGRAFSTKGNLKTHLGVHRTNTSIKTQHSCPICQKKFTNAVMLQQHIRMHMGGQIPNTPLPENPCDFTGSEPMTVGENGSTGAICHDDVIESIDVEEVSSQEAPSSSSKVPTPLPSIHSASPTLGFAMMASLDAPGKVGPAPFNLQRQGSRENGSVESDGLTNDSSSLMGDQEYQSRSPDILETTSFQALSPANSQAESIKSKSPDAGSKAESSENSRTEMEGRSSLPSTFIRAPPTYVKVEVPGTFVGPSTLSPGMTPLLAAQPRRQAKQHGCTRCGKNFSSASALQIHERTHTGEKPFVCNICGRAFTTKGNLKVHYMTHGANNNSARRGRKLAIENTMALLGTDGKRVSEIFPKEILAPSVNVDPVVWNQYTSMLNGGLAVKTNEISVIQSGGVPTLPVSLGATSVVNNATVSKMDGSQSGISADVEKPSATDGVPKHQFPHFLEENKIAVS
Notes: 8-mer, flanks averaged, mean of replicates
Oligonucleotide | E-score
AAACAAGT | 0.169
CCATCTCC | -0.0526
ACTATCTG | -0.0632
CCAAGGCG | -0.237
CATGTTAG | 0.106
ACGTAAGC | -0.164
AAGCCACT | -0.102
AAGGTTAC | -0.022
AAATCTAT | 0.302
AAGATCCT | 0.118
GCCGAAAA | 0.00528
TCGGCCAA | -0.00983
CACCGCCC | -0.236
GGTGAAAA | 0.0848
ATTTGGCG | 0.136
CCAATAAG | 0.151
CCAAGCGC | -0.172
GTATAGAC | 0.224
CAAGAGAA | 0.127
AACCGCAT | 0.0322
GCGGTATA | 0.0746
CACACTCG | -0.0906
AGTGGGTA | -0.133
AAGTAAGG | 0.132
GGAGAGTA | 0.122

Study 7 — method: DHFR PCA, deep sequencing; medium: yeast; together with: (+)-ABA 0.032 µM; relative to: wild-type fitted maximum; reading: higher = stronger binding
Target: ABI1, truncated, D143A, DHFR fusion (Arabidopsis thaliana)
Notes: methotrexate growth selection, single substitutions
Parent: PYL1, truncated, DHFR fusion (Arabidopsis thaliana); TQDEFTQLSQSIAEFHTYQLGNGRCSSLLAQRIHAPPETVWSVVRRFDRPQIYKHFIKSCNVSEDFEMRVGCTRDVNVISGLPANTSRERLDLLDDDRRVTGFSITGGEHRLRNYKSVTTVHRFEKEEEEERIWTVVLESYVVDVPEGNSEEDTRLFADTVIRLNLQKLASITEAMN
Variant | relative binding score [%]
F157C | 3.6
A175P | -1.23
K168R | 17.6
R113Q | 46.2
P50H | -8.54
P36A | 13.6
Q10P | 32.7
V70E | 9.61
H16M | 4.15
T39C | 15.7
N165Q | 4.32
E130C | 21.6
G21C | 12.1
P37E | -9
E4V | 38.1
Q10G | 28.6
W134R | 5.3
T86S | 19.5
N165K | 1.5
D75K | 19.8
P37W | -1.31
A13F | -0.692
G108I | -4.67
G107N | 7.79
V43Y | -4.31

For quick reference, copied from above (study 2):
Oligonucleotide | log2 enrichment
GUCCUGUGCUACACAUCGUAUGUACCGAAUCGGGUUUUUGGGGUUUUUGGUUUUUGGGAAAGUAUUAUGUUACGCCGUUCGGAUCUGCAC | -0.747
UGUGCUACACAUCGUAUGUACCGAAUCGGGGAAAAAGGGGAAAAAAAGGGGUUUUUUUGGGGAAAGUAUUAUGUUACGCCGUUCGGAUCU | 0.355
UCAAGUCCUGUGCUACACAUCGUAUGUACCGAAUCGGGUGGGUUUGGGUUUGGGAAAGUAUUAUGUUACGCCGUUCGGAUCUGCACUUCC | -1.05
CUGUGCUACACAUCGUAUGUACCGAAUCGGGGAAAGGGGAAAAAAAGGGGAAAAAAAGGGGAAAGUAUUAUGUUACGCCGUUCGGAUCUG | 0.758
UCAAGUCCUGUGCUACACAUCGUAUGUACCGAAUCGGGUUUGGGAGGGUUUGGGAAAGUAUUAUGUUACGCCGUUCGGAUCUGCACUUCC | -0.251
GUCCUGUGCUACACAUCGUAUGUACCGAAUCAAACCCCCAAAUUUUUUUAAACCCAAAAAAGUAUUAUGUUACGCCGUUCGGAUCUGCAC | 1.54
ACUGAGGUACUGCCCUCCCCUGCCCCCUACCCUCUCCCUUGUCCCUCUACCCCGUUCCUCCCCUUCCCUCCAUUCCCUUUCCCCAACCUG | -0.615
CCUCAAGUCCUGUGCUACACAUCGUAUGUACCGAAUCGGCCGGCCGGCCGGGGAAAGUAUUAUGUUACGCCGUUCGGAUCUGCACUUCCA | 0.288
UGGGAGGUGGAUUUUGUUUAUUUUUUUAGCGCAUUUCCAGGGGUGGGAAUUUUUUUUUAAUAUGUGUCAUGAAUAAAGUUGUUUUUGAAA | 0.186
GUCCUGUGCUACACAUCGUAUGUACCGAAUCGGGUUUUUGGGUUUUUGGUUUUUGGGGAAAGUAUUAUGUUACGCCGUUCGGAUCUGCAC | -0.83
AGUCCUGUGCUACACAUCGUAUGUACCGAAUCAAAUUUAAAUUUUUUUAAACCCAAAAAAGUAUUAUGUUACGCCGUUCGGAUCUGCACU | -0.916
